Measurements from different studies.
Parts stem from different laboratories: compare values within a part only.

Set 1 — method: RNA Bind-n-Seq; molecule type: RNA; matrix: in vitro; tested at: 200 nM; setting: whole 134-nt RNA, ends assumed; with: 150 mM LiCl; relative to: input library; direction: higher = stronger binding; endpoint: log2 enrichment; library: 7-deaza-guanosine replaces G
Target: Fragile X messenger ribonucleoprotein 1, C-terminal low-complexity region (Fmr1, Mus musculus, UniProt P35922)
Constant ends, left off below: GGGAGUUCUACAGUCCGACGAUC … UGGAAUUCUCGGGUGUCAAGG
Strand = CCUGUGCUACACAUCGUAUGUACCGAAUCGGGAAAAAAAGGGGAAAAAAAGGAAAAAAAGGAAAGUAUUAUGUUACGCCGUUCGGAUCUG; result = 0.0902
Strand = UCCUGUGCUACACAUCGUAUGUACCGAAUCGGGGAAAAAGGGGUUUGGGGUUUUUGGGGAAAGUAUUAUGUUACGCCGUUCGGAUCUGCA; result = -1.43
Strand = AAGUCCUGUGCUACACAUCGUAUGUACCGAAUCGGGUUUUUGGGUUUGGGAAAGGGAAAGUAUUAUGUUACGCCGUUCGGAUCUGCACUU; result = -1.87
Strand = AAGUCCUGUGCUACACAUCGUAUGUACCGAAUCGGGGCCCCGGCCCCGGGCCCCGGGAAAGUAUUAUGUUACGCCGUUCGGAUCUGCACU; result = -2.72
Strand = CAAGUCCUGUGCUACACAUCGUAUGUACCGAAUCGGGGUGGGGUUUGGGGUGGGGAAAGUAUUAUGUUACGCCGUUCGGAUCUGCACUUC; result = -0.539
Strand = UCCUCAAGUCCUGUGCUACACAUCGUAUGUACCGAAUCGGGCGGCGGCGGGAAAGUAUUAUGUUACGCCGUUCGGAUCUGCACUUCCAGC; result = 0.957
Strand = CAAGUCCUGUGCUACACAUCGUAUGUACCGAAUCGGGUGGGAGGGAAAAAAAGGGAAAGUAUUAUGUUACGCCGUUCGGAUCUGCACUUC; result = 0.0287
Strand = CAAGUCCUGUGCUACACAUCGUAUGUACCGAAUCGGCCCCGGGCCCCGGCCCCGGGAAAGUAUUAUGUUACGCCGUUCGGAUCUGCACUU; result = -1.15
Strand = UGGCCCUGGUGGUAUGCGGGGAGGAAGAGGUGGCCUCAUGGAUCGUGGUGGUCCCGGUGGAAUGUUCAGAGGUGGCCGUGGUGGAGACAG; result = 0.787
Strand = UCCUCAAGUCCUGUGCUACACAUCGUAUGUACCGAAUCGGUGGUGGGGUGGAAAGUAUUAUGUUACGCCGUUCGGAUCUGCACUUCCAGC; result = 0.473
Strand = ACCAUGCAGGUGGGCAUCUUUGGGAAGUGGGGCAAGGGGGGGAUAGGGAGGGGGGUAACACUUUGGGAACAGGUAGUCCCAGGUCGUUUC; result = 1.59

Set 2 — method: RNA Bind-n-Seq; molecule type: RNA; matrix: in vitro; tested at: not given; setting: RNA with constant flanks, ends assumed; relative to: input RNA pool; direction: higher = stronger binding; endpoint: bound/input enrichment
Target: RING finger protein unkempt homolog, zinc fingers 1-6, GST-SBP tag (UNK, Homo sapiens, UniProt Q9C0B0, residues 30-357)
Constant ends, left off below: GGGAGUUCUACAGUCCGACGAUC … CAACAGAGGAUUGAGCAUCA
Construct (chain): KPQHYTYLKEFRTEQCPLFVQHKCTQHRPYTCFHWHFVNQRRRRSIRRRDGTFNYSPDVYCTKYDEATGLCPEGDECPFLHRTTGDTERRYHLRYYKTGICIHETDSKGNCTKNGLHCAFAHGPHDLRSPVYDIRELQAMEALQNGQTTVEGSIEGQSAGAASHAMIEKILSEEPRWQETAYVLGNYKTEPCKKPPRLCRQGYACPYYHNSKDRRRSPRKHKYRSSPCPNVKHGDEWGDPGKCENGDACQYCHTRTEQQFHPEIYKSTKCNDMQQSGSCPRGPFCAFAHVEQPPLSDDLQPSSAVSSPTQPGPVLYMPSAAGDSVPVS
Strand = UUUCUGGUAAAUUCAUGUCAGUAAUUUGUUGAAGAGUUAACAAGAAAAGGUCUUUCCCGAUUGUGUCUAAGAUGAAAUAAAAUGUAACUUUUGCUGCAGUGGUAUGUUUCUUUUGGAGUA; result = 0.135 ratio
Strand = UUUCCAAAGCAGCCAGGAACAUCAGGUGCUUAUCCUCUUACUUCACCCCCUACAUCUUAUCACCGCACAGUCAAUCAGUCUCCCUCAAUGAUGCACACACAGUCUCCAGGAAAUCUGCAU; result = 0.535 ratio
Strand = CGGAUCUUUGGUGAAGUGGCCAGGUCUACUGACUCAAAGUCCAUGAAAGUGGUGAGCCUGUUCCGCGAGCAGCCCUUGGCCAAGAAGAAAGAGACUUAUGACUGGUAUCCAAAUCACAAC; result = 0.0686 ratio
Strand = CAUGAGGAAAGAACAAUUCUCCCUAUGUCGAGAGCAUUCCGCGGUAAACACCUCUCUUUUGCCGUUCGAUUUCCAAACCAGGGCAGACAGGUUGAUGACUUGGAGGUAUGGUCUCAUACA; result = 0.102 ratio
Strand = ACCCGAUUCUGUCUUAUCUGUAACUAUGUCAGUCGAAUAAUUGAACCCCUGACCUCCCGAUGUUCAAAAUUCCGCUUCAAGCCUCUGUCAGAUAAAAUUCAACAGCAGCGAUUACUAGAC; result = 0.864 ratio
Strand = AACAGUGAUAUAUGCAAGAAACCCUGUAGCGUAGCGCCUCAUGAUAGUCAGCUAAUUUCCCGUACUAUCCUAAUUAAUGAAAUGAAUGGAGUUGGAGAAAAAUUAUCAGCCAAGGAGAAC; result = 0.774 ratio
Strand = CCUCCACCAAAUGCAGAUCCUAAUAUGAAGUUAUUUACAAUUCGUGGCACUCCACAACAGACCGACUAUGCUCGGCAACUCAUAGAAGAAAAGAUUGGUGGCCCAGUAAAUCCUUUAGGG; result = 0.923 ratio
Strand = CACUGGAAGUGUGCUUCUAGGCAUAGUCAUUGGUUUUGCAAAAAGAGGGCUCAAAUUUAAACCGAAAUUUACAGCUAUUUGAAUGGUCAGAUAUACCAAGAAAGAAAAAUAUUUCUGUUC; result = 0.233 ratio
Strand = GUAAAUUAAAAUAUAAAUUCAUAUAAAUUCUGAAACCCAUACUUGAACAAUGUGAGGAGACCGUUAAGGGGGAAAUCAAGGGUAAACUUGAUGUUUUCUACACAUGUUGACAGUAAGUGU; result = 1.71 ratio
Strand = GUGCUUCAGGUAGAUUCUGGUGCUAAUGCCACUGCCACAGCUCAGUGGUUUGGGGGCAAUAUCCGUGCUCCCUUCGAGGAUGCCUGCCCUCCUGAGGUGGAUUUUCUCAAGCAAGAUUGC; result = 0.109 ratio
Strand = GAUAUUUGCAAUUAGUUGUCUUAACUAAUGGUUUUUUUCACUUGCAGGAUUAUUUCCUAUUCCGAGAUGGUGACAUUCUUGGAAAGUACGUAGACUGAAAUAAGUCACUAUUGAAAUGGC; result = 0.188 ratio

Set 3 — method: protein-binding microarray; molecule type: double-stranded DNA, one strand shown; matrix: in vitro; tested at: 250 nM; setting: 60-bp whole probe; with: salmon DNA 0.4 mg/ml; relative to: random background probes; direction: higher = stronger binding; endpoint: log fluorescence; constant ends, left off below: GCCTAGCAC … GTCTTGATTCGCTTGACGCTGCTG
Target: Interferon regulatory factor 5, full length, phosphomimetic (IRF5, Homo sapiens, UniProt Q13568-2, residues 1-514, K96S/S451D/S453D/S456D/S462D)
Strand = GTAGGACTGGGGACTGGGTTAGTGCTA; result = -0.577 z-score
Strand = TCATATTTAAGACCTATGACTGTGCTA; result = 0.466 z-score
Strand = CTCTGCTTGTATCTGGGTTCGTGCTAG; result = 0.0267 z-score
Strand = GACGAACTGAGTATCCAGACGTGCTAG; result = -0.403 z-score
Strand = TCATTTCTCTTTCCTTCACTGTGCTAG; result = 2.61 z-score
Strand = TTGAGTTTTCCTTCATGTGCGTGCTAG; result = 0.714 z-score
Strand = GATGGTATCGGTTTCGGGACGTGCTAG; result = 9.02 z-score
Strand = TTAGGTATCGGGTTTCGGTTGGTGCTA; result = 7.99 z-score
Strand = GACGATTTCGGGTTTCGAGTCGTGCTA; result = 5.59 z-score
Strand = TTAGAACTGGGGTTTCGGTTAGTGCTA; result = 6.89 z-score
Strand = TTAGGATTCGACTTTCGGTTAGTGCTA; result = 9.61 z-score
Strand = GACGAACTGGGGTTTCGAGAAGTGCTA; result = 1.1 z-score
Strand = GTAGGTTTCCTTATCCTTTAGTGCTAG; result = 0.9 z-score
Strand = GACGATATCGGCTATCGAGACGTGCTA; result = 2.33 z-score
Strand = TTAGGTTTCAGTATCGATTAGTGCTAG; result = 9.22 z-score
Strand = GACGATTTCGGGTAGCGAGACGTGCTA; result = 3.8 z-score
Strand = TCAAAAATCTCAATGGGACTGTGCTAG; result = -0.00137 z-score
Strand = AGACTTCTCCATTTTTCTAGGTGCTAG; result = 0.553 z-score
Strand = TCACTTTTTTGTTCCACACTGTGCTAG; result = 1.33 z-score
Strand = GCCGGACTGGGACTGGGGACGTGCTAG; result = -0.746 z-score
Strand = GACGAACTGGGGTATCGAGTCGTGCTA; result = -0.0122 z-score
Strand = TCATTTTCCTATGTCATACTGTGCTAG; result = 1.49 z-score

Set 4 — method: protein binding microarray; molecule type: double-stranded DNA, one strand shown; matrix: in vitro; tested at: not given; relative to: not given; direction: higher = stronger binding; endpoint: E-score
Target: Histone acetyltransferase KAT6A, winged helix 2, GST fusion (KAT6A, Homo sapiens, UniProt Q92794, residues 85-181)
Setting: 8-mer, flanks averaged, mean of 2 arrays, mostly near background
Target sequence (chain): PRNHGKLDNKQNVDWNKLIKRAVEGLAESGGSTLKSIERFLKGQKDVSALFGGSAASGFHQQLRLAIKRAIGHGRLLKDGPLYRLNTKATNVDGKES
Strand = TATCTTGA; result = -0.103
Strand = TCACATAA; result = -0.0266
Strand = ACTATTCG; result = -0.132
Strand = ATTTAGTG; result = 0.0982
Strand = ATCTTAGC; result = -0.065
Strand = ATACTGAA; result = 0.0465
Strand = ATCGTCAA; result = -0.0158
Strand = AGCCAAGC; result = 0.0289
Strand = GATGGCGA; result = -0.00278
Strand = ATGAGTTG; result = -0.077
Strand = CACTAAGC; result = -0.0646
Strand = CACGTAAG; result = -0.263
Strand = ATTTTGAG; result = 0.208
Strand = ACGAGTAG; result = -0.0635
Strand = ATATACCA; result = -0.2
Strand = ACATATAA; result = -0.0487
Strand = CTAGCGAG; result = -0.0234

A few entries again (set 3):
Strand = GACGAACTGGGGTTTCGAGAAGTGCTA; result = 1.1 z-score
Strand = GATGGTATCGGTTTCGGGACGTGCTAG; result = 9.02 z-score
Strand = TCATTTTCCTATGTCATACTGTGCTAG; result = 1.49 z-score
Strand = TCACTTTTTTGTTCCACACTGTGCTAG; result = 1.33 z-score
Strand = TTAGAACTGGGGTTTCGGTTAGTGCTA; result = 6.89 z-score
